Measurements gathered from unrelated publications.
A part holds a random share of what one study measured. Positions count from the first letter of the parent shown.
Chain of UniProt Q93YR9 (whole entry, looked up): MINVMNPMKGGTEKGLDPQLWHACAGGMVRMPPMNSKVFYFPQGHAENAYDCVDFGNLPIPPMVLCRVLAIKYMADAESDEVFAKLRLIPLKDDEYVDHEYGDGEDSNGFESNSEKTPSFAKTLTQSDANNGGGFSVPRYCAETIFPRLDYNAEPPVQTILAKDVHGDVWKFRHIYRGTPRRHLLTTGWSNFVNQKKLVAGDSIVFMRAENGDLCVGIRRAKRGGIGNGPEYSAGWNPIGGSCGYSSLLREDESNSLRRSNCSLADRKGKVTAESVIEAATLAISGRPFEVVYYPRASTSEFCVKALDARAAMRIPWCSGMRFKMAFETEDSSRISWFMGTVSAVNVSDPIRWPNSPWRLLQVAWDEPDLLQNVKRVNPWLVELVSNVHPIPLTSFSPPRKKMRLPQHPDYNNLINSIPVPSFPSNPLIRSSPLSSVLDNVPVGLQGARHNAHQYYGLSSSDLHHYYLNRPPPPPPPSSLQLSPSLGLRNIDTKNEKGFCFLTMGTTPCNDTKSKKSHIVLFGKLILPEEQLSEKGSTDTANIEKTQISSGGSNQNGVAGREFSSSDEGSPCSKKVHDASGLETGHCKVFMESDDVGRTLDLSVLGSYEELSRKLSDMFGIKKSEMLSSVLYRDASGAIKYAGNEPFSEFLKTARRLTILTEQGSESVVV

Block 1
Target: CCNB3, cyclin fold, Cln2 fusion (human)
Method: yeast growth competition, sequencing
Sample: yeast
Setting: weak parent motif
Relative to: not given
Reading: higher = stronger binding
Parent: CDKN1A docking peptide (human); SKACRRLFGPVDS; partner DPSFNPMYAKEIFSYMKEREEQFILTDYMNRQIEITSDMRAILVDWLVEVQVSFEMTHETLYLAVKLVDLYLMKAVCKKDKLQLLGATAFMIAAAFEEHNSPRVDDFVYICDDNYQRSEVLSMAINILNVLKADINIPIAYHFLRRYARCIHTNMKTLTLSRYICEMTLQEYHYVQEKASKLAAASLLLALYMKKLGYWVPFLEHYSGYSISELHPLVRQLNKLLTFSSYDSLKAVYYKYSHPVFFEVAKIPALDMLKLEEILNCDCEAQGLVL
| Variant | normalised enrichment score |
| --- | --- |
| SKPCRRLFGPVDS [A3P] | 0.987 |
| SKAFRRLFGPVDS [C4F] | 0.0369 |
| SKACRRLFKPVDS [G9K] | 0.42 |
| SKACRRLFGPQDS [V11Q] | 0.66 |
| SYACRRLFGPVDS [K2Y] | 0.57 |
| SKACRRLMGPVDS [F8M] | 0.0856 |
| SKACRRLFGPVDA [S13A] | 0.75 |
| SKACRRLFGWVDS [P10W] | 0.315 |
| SKACRRLFGNVDS [P10N] | 0.529 |
| SWACRRLFGPVDS [K2W] | 0.408 |
| SKACRRLFGTVDS [P10T] | 0.627 |
| SKACRRLEGPVDS [F8E] | -0.498 |
| SKACRRLFNPVDS [G9N] | 0.3 |
| SKKCRRLFGPVDS [A3K] | 0.297 |
| SKACRRLFGPVPS [D12P] | 0.433 |
| SKACRRLFGPVCS [D12C] | 0.366 |
| SKWCRRLFGPVDS [A3W] | 0.0841 |
| SKFCRRLFGPVDS [A3F] | 0.275 |
| SKACRRLFGPKDS [V11K] | 0.261 |
| SKACRHLFGPVDS [R6H] | 0.381 |
| SKACRRLFGEVDS [P10E] | 0.425 |
| SCACRRLFGPVDS [K2C] | 0.605 |
| SKACRRHFGPVDS [L7H] | 0.21 |
| SKACRRLFGPYDS [V11Y] | 0.665 |
| SKACLRLFGPVDS [R5L] | 0.365 |

Block 2
Target: RNA binding protein fox-1 homolog 2, RRM domain, GST-SBP tag (RBFOX2, Homo sapiens, UniProt O43251-10, residues 100-194)
Method: RNA Bind-n-Seq
Form: RNA
Sample: in vitro
Concentration: 365 nM
Setting: natural RNA segment, single round, ends assumed
Relative to: no-protein control
Reading: higher = stronger binding
Constant ends, left off below: GGGAGUUCUACAGUCCGACGAUC … UGGAAUUCUCGGGUGCCAA
Residues (chain): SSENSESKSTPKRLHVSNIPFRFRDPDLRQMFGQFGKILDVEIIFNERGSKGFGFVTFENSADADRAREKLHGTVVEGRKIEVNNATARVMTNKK
| Strand | RBNS enrichment (R) |
| --- | --- |
| UAUUGUAACUUGAAACACUAUAUUUUGUCUUUCCUGUGAGUAGCUCUAAGUUUGAGAGAAACCACUCCUCCAAGCUUCUCUGUUUCUUCCCAUUUCCUGUGGUCCUUUUU | 0.376 |
| GUCAAUGCAAUUGUGGCCAUCUGGCCACAAGCUCCAAGGGACUUACAAGCUCAAGGGCCAGAGCCCAGAGACCCAUUUUCCCCUCCAAGGAGUGGGGCAGGAAGGGUCUC | 0.351 |
| GUGUUGUAAGGCCUAUGCCAAGGAUAAAGGAAGGGUAUGCCUUUGGGUACUCCAGGCACACACCUUUCUGAAAUCCUUCUCCAGCCAGCUGCUGCAGACAAAAGAUCACA | 0.288 |
| ACAUUUCUUUAUGUGCUAAAUGUUUGCUCUUUAAAAAUGUCUCAGAGUUAGUUACCAGCUUCCUUGAUUUCAUCUAUACACAAUGAUUAAGUGCAUUUAAUAUUGGUAAU | 0.403 |
| GUCAGCACUUAACACAGGAAAAAACUAGGUGUUGUUUUGUUUUGUUAUUUUGGACAACAUAAAAUUCAGGAAUGUUUUAUUUAGCCUUGGUUUCUAGAAGGAAGGGAAAU | 1.08 |
| CGCAGGCCACAGCAGACAGGGUGGGAGCCCUGUACAGCUUGAUAACCCUUAAUAAAGAAGGGACUUUAUCUGGUUGUGGCAUCUUUUUUUUUCCCCCACGCAGCAGUUUG | 0.553 |
| GGUCAGUGUUUACUGUUUUAUAUAUGCCUUCUUUUUCCUGUUUGAGCUUCUCUCUCUGAAGGAUUCUAACAGAACAAAAGCUGCUGAUCAACCUAAGUUGGAAACAGAAA | 0.481 |
| UCUCUGGUCUACCUGAGAUCUAUAUGGAGCUUAAAGGAGGGUGAAUAAGAUUAAUGACCUGAAUUGAAAGAGAAUUUGGAGCCAGGAUGGGUCUCCAUUCUGUGUGGCAC | 0.437 |
| UGCUCGUCCUGUUAAUUUUCCUCAAUUUUUCUUCUUCUUCCUUCUGUCCCUCCUGCCUUCCUUCUCUUCCCAAGCCCUCCAAUCCCCAUCCCAGGCUUGCUGUGUCUCAC | 1.79 |
| GUAGAUUUCAUUGAGGUUUUAGAUUGAAACUUUGAAUAAAUCAAAAAUACUCAUUCUUAUUUACUGCAACCUUCUCAUAUUUUAUAUACUUAGAUGGAAAAUUAUUUUUU | 1.48 |
| AGAGCAUUAAGCUAAAACUAUCAACAUUUUAAACCAAAUUGCCUUAUUUUUCUUCCAAACUUCAUAUAUGUCUAUCAGGUAAUAAUAGGCUUGAAAAUUGAUAUCCUGUG | 0.705 |
| CUUUUUGAACUUCCCUUCUAUUAAACUUAAAACAGAUGUCUUAAUUAAUCAGGCUGUCUUGGAAGGGUAUUGUAUUGGGAGACAAGGGGCGGUGGUGGACCUCACCUUCA | 0.607 |

Block 3
Target: Sal-like protein 4, full length isoform B (SALL4, Homo sapiens, UniProt Q9UJQ4-2, residues 1-616)
Method: universal PBM
Form: double-stranded DNA, one strand shown
Sample: in vitro
Concentration: not given
Setting: 8-mer, flanks averaged, mean of replicates
Reading: higher = stronger binding
| Strand | E-score |
| --- | --- |
| ATGCGACG | -0.0648 |
| GGCATCAC | -0.279 |
| ACGACAGG | -0.127 |
| CAACAACA | 0.186 |
| AGGAAGTA | 0.0192 |
| ACGCCATG | 0.0241 |
| GGATTCTA | 0.0647 |
| GTGGGCTA | -0.0463 |
| CGTGGGTA | -0.296 |
| CTTAAATC | 0.113 |
| CTTACCCC | -0.271 |
| GAACACGA | 0.115 |
| CAGAGATA | 0.201 |
| CTTTGAGA | 0.0742 |
| GGACCAAA | -0.152 |
| CTACGTCC | -0.0647 |
| ATTGCTCG | -0.0206 |

Block 4
Target: UBE2Q2 UBC core domain (UniProt Q8WVN8)
Chain of UniProt Q8WVN8 (whole entry, looked up): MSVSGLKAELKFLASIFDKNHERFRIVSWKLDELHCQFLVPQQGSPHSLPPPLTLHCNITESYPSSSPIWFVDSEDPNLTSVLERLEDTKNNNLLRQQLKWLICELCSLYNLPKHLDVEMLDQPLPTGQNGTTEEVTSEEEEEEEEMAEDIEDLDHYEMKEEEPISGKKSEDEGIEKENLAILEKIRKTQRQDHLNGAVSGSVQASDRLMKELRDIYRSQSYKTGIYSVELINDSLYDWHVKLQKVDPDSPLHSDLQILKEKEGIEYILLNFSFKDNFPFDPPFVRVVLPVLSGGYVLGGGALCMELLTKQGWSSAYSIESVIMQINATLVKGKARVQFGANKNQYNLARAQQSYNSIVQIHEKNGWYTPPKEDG
Method: yeast two-hybrid
Sample: yeast
Setting: mostly zero background
Relative to: not given
Reading: higher = stronger interaction
B1: RNF10 RING domain (UniProt Q8N5U6); chain VRICSHEVPSCPICLYPPTAAKITRCGHIFCWACILHYLSLSEKTWSKCPICYSSVHKKDLKS
B2: RMND5B RING domain (UniProt Q96G75); chain MKCWYHSVFACPILRQQTSDSNPPIKLICGHVISRDALNKLINGGKLKCPYCPMEQNPADGK
B3: RNF7 RING domain (UniProt Q9UBF6); chain AICRVQVMDACLRCQAENKQEDCVVVWGECNHSFHNCCMSLWVKQNNRCPLCQQDWVVQRIGK
B4: SHPRH RING domain (UniProt Q149N8); chain KTSGGVNPEPCPICARQLGKQWAVLTCGHCFCNECISIIIEQYSVGSHRSSIKCAICRQTTSHKEISY
B5: PJA2 RING domain (UniProt O43164); chain DHTAIGQEQCCPICCSEYIKDDIATELPCHHFFHKPCVSIWLQKSGTCPVCRRHFPPAVIEA
B6: MARCHF2 RING domain (UniProt Q9P0N8); chain RLLSTVIRALDTPSDGPFCRICHEGANGECLLSPCGCTGTLGAVHKSCLEKWLSSSNTSYCELCHTEFAVEKRPRPLTEWL
B7: RNF17 RING domain (UniProt Q9BXT8); chain SQPWGAAEIQCTRCGRRVSRSSGHHCELQCGHAFCELCLLMTEECTTIICPDCEVATAVNTRQR
| Sequence | lacZ reporter activity |
| --- | --- |
| B1 (RNF10 RING domain) | 0 |
| B2 (RMND5B RING domain) | 0 |
| SNNDLASLFECPVCFDYVLPPILQCQSGHLVCSNCRPKLTCCPTCRGPLGSIRNLA (SIAH1 RING domain (UniProt Q8IUQ4)) | 0 |
| B3 (RNF7 RING domain) | 0 |
| MEEMEEELKCPVCGSFYREPIILPCSHNLCQACARNILVQTPESESPQSHRAAGSGVSDY (TRIM9 RING domain (UniProt Q9C026)) | 0 |
| B4 (SHPRH RING domain) | 0 |
| EIKDYKARLTCPCCNMRKKDAVLTKCFHVFCFECVKTRYDTRQRKCPKCNAAFGANDFHR (RNF20 RING domain (UniProt Q5VTR2)) | 0 |
| B5 (PJA2 RING domain) | 0 |
| GSEEEEIPFRCFICRQAFQNPVVTKCRHYFCESCALEHFRATPRCYICDQPTGGIFNPA (RNF113B RING domain (UniProt Q8IZP6)) | 0 |
| KITELNPHLMCALCGGYFIDATTIVECLHSFCKTCIVRYLETNKYCPMCDVQVHKTRPLL (PCGF2 RING domain (UniProt P35227)) | 2490 |
| B6 (MARCHF2 RING domain) | 0 |
| B7 (RNF17 RING domain) | 0 |

Block 5
Target: Histone acetyltransferase KAT6A, winged helix 1, GST fusion (KAT6A, Homo sapiens, UniProt Q92794, residues 1-85)
Method: protein binding microarray
Form: double-stranded DNA, one strand shown
Sample: in vitro
Concentration: not given
Setting: 8-mer, flanks averaged, mean of 2 arrays, mostly near background
Relative to: not given
Reading: higher = stronger binding
Target sequence (chain): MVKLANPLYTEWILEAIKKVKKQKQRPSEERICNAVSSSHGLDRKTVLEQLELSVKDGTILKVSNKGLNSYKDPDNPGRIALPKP
| Strand | E-score |
| --- | --- |
| TACTCATA | -0.0156 |
| CCCGGGTA | 0.224 |
| CATACCGC | 0.329 |
| TCCCCCGA | 0.221 |
| AGTGCAAC | -0.143 |
| CAAGTGTA | -0.135 |
| ATTTGGTG | -0.355 |
| CCGCATAC | 0.238 |
| AACCTTTG | -0.0779 |
| TGGCTACA | -0.242 |
| ATGGGTGC | -0.0973 |
| CGCCGTAC | 0.422 |
| CTACAGGA | -0.148 |
| AGCCCCAC | -0.237 |
| CTTCATCC | -0.121 |
| TCCGCAAA | 0.145 |
| GTCTGAGA | -0.108 |
| AGACGTGA | -0.0663 |
| CCAGTACG | -0.0617 |
| ATTTAACG | 0.096 |
| CAAATTTC | -0.302 |
| CCCGAAGA | 0.0658 |
| CAGCACGC | 0.161 |
| CCAACTTA | -0.194 |
| CGATAGTA | 0.0575 |

Block 6
Target: ABI1, truncated, D143A, DHFR fusion (Arabidopsis thaliana, UniProt P49597)
Method: DHFR PCA, dose-response
Sample: yeast
Setting: Hill fit, mean, not affinity
Added: (+)-ABA, dose series
Reading: lower = more sensitive
Parent: PYL1, truncated, DHFR fusion (Arabidopsis thaliana, UniProt Q8VZS8); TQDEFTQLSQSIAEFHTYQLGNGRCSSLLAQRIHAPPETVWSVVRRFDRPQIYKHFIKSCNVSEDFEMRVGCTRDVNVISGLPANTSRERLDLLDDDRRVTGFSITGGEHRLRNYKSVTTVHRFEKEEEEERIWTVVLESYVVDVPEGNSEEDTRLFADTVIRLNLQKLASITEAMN
| Variant | ABA EC50 [µM] |
| --- | --- |
| C60T | 4.74 |
| F56V | 413 |
| E147M | 3.78 |
| Q7C | 1.61 |
| L164A | 0.937 |
| R113D | 15.2 |
| T101N | 175 |
| P83A | 17.4 |
| L166V | 567 |
| N61W | 3.47 |
| V143I | 185 |
| P146S | 94.5 |
| F15K | 257 |
| I79D | 131 |
| G23I | 76.9 |
| G108A | 443 |

Mixed results
B8: IAA15 (Arabidopsis thaliana, UniProt Q9C966); chain MSPEEYVRVWPDSGDLGGTELTLALPGTPTNASEGPKKFGNKRRFLETVDLKLGEAHENNYISSMVTNDQLVGWPPVATARKTVRRKYVKVALDGAAYLRKVDLGMYDCYGQLFTALENMFQGIITICRVTELERKGEFVATYEDKDGDLMLVGDVPWMMFVESCKRMRLMKTGDAIGL
| Sequence | partner | method | relative to | reading | quantity | value |
| --- | --- | --- | --- | --- | --- | --- |
| B8 (IAA15) | ARF16 570-670 (Arabidopsis thaliana, UniProt Q93YR9) | two-hybrid | out of 4 tests | higher = firmer interaction | positive tests | 1 |

A few entries again (block 6):
| Variant | ABA EC50 [µM] |
| --- | --- |
| L164A | 0.937 |
| G23I | 76.9 |
| F15K | 257 |
| F56V | 413 |
| I79D | 131 |
| P83A | 17.4 |
| E147M | 3.78 |
| C60T | 4.74 |
| T101N | 175 |
| G108A | 443 |
| N61W | 3.47 |
